Results gathered from unrelated publications.
Every numbered part comes from another study and shows a few of its results, in no order.

Set 1
Target: Histone acetyltransferase KAT6A, winged helix 2, GST fusion (KAT6A, Homo sapiens, UniProt Q92794, residues 85-181)
Method: protein binding microarray
Molecule type: double-stranded DNA, one strand shown
Sample: in vitro
Tested at: not given
Notes: 8-mer, flanks averaged, mean of 2 arrays, mostly near background
Relative to: not given
Direction: higher = stronger binding
Construct (chain): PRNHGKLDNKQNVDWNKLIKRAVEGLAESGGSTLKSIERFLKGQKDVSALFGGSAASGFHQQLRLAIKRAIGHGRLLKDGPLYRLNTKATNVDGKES
With `AGTGCACG` the E-score was 0.00965.
`CGACGAAG` gave an E-score of 0.179.
`CAGCAAGA` has an E-score of 0.188.
`GATGCGCA` gave an E-score of 0.0548.
With `CAGTCCTA` the E-score was -0.23.
The E-score of `GAACTCAA` is reported as -0.0396.
For `CTTATGGC`, the E-score was 0.055.
With `AGCGTTAA` the E-score was -0.131.
`CCCACTAA` has an E-score of -0.0335.
`GGAGCTAA` has an E-score of 0.104.
For `AGTCCGAT`, the E-score was -0.0383.
`AGCATTTC` gave an E-score of 0.0233.
With `AATCAACA` the E-score was 0.165.
With `AATTAATC` the E-score was 0.205.
The E-score of `AATTGCTC` is reported as 0.0828.
`GCGGGAAC` gave an E-score of 0.0521.
The E-score of `ATCATATG` is reported as 0.00036.
With `ACATCAGG` the E-score was -0.111.
With `AATAGCAC` the E-score was -0.0448.
The E-score of `AAGCCCCA` is reported as -0.0997.
The E-score of `GCAAGTAC` is reported as -0.131.
`AGACCTTG` has an E-score of -0.0254.
The E-score of `GACACGGA` is reported as 0.121.
The E-score of `CTATTGGA` is reported as -0.0207.
The E-score of `CGTTGCCA` is reported as 0.0138.

Set 2
Target: RING finger protein unkempt homolog, zinc fingers 1-6, GST-SBP tag (UNK, Homo sapiens, UniProt Q9C0B0, residues 30-357)
Method: RNA Bind-n-Seq
Molecule type: RNA
Sample: in vitro
Tested at: not given
Notes: RNA with constant flanks, ends assumed
Relative to: input RNA pool
Direction: higher = stronger binding
Shared flanks, not repeated: GGGAGUUCUACAGUCCGACGAUC … CAACAGAGGAUUGAGCAUCA
Residues (chain): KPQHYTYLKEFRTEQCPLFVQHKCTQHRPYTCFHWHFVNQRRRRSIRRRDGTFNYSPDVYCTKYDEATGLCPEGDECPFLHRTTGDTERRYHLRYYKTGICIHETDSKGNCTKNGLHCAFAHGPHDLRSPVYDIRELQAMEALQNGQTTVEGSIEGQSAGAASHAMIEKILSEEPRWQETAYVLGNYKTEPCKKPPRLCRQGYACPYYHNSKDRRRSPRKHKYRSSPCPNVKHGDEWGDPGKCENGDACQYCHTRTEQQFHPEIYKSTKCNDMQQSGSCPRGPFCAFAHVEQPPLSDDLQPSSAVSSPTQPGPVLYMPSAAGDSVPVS
With `UGACUGUUGCAGGGUGGGUGGUUUCCAAACGAGUCUAAGUUAUGAGUGCCCAGACUUCCCCCGCAGAGAAGGGCCUAAAUCCGGGGCUCAUGUGCCAGGAGAGUUAUGCAUGCAGUGGGA` the bound/input enrichment was 0.244 ratio.
The bound/input enrichment of `CUCCCUCAACCAAUUUAUAGACACAUAGCAUCUUUCCUGUCAGUCUUCAAACUAGUAUUAACCGGCUUAAUAAUUGUUGGCAAAGAUCCUUUUGCUUUUUUCGGCAUGCAAGCUCCUAGC` is reported as 67.5 ratio.
The bound/input enrichment of `GAUGAAGUCGUUACAUCGGAGGGAAAGACUAAGCCCCUCAUACCAGAGAUGUGUUUUAUUUACCGUGAAGAAAAUAUAGAAUAUUCUCCACCCAAUGCCUUCCUUGAAGAGGAUGGAACA` is reported as 0.0784 ratio.
For `ACUGGAGAGAAACCUUACAAAUGUAGUGAAUGUGAGAAAUCCUUUACAGUAGGCUCGGAUCUCCGAAUGCAUCAAAAAAUUCAUACUGGAGAGAAACCUUACAAAUGUAGUGACUGUGAU`, the bound/input enrichment was 0.477 ratio.
`ACCGCCAUCUACUGCUUCCUACGCUGCAUGGAGCCAGACCCUGAGAUCCCUUCUGCCUUCAACCGCCUCCAAAGGACUCUCAUUUAUUCCAUCUCACUUGGUGGGGACACAGACACCAUU` has a bound/input enrichment of 0.231 ratio.
`GUCGACGUGUGCAGAAAUCCUGCUAGUCUGGUCCUUGUUUCCAUCUGGGUACCAGCUCCCUUCCGCCUUGCAGACGGUGGUGCGAGAGGCCAGCGGCCAGAAGAGACAGCUUGCUUCAAU` gave a bound/input enrichment of 0.207 ratio.
The bound/input enrichment of `CCAUCAGCUUCUGAAGUUCCCGAUAAUAGGGCAUCUGAAGCUUCUCAGGGAUUUCGAUUUCUCCGGCGAAGAUGGGGUUUGUCAUCUCUUAGCCACAAUCAUAGCUCUGAGUCAGAUUCA` is reported as 0.169 ratio.
With `GAUAUUCUUCUUCUCAUUGUCCGUCUGGCUGUGUUAAUGGCUGUGACCCUGACAGUACCAGCCGUUAUUUUCCCAAUCCGGAGUUCUGUAACUCACUUGUUGUGUGCAUCAAAAGAUUUC` the bound/input enrichment was 0.175 ratio.

Set 3
Target: Interferon regulatory factor 5, full length, phosphomimetic (IRF5, Homo sapiens, UniProt Q13568-2, residues 1-514, K96S/S451D/S453D/S456D/S462D)
Method: protein-binding microarray
Molecule type: double-stranded DNA, one strand shown
Sample: in vitro
Tested at: 250 nM
Notes: 60-bp whole probe
With: salmon DNA 0.4 mg/ml
Relative to: random background probes
Direction: higher = stronger binding
Shared flanks, not repeated: GCCTAGCAC … GTCTTGATTCGCTTGACGCTGCTG
With `CATAGAGATGCCTGTCCTCTGTGCTAG` the log fluorescence was -0.24 z-score.
`GACGGTTTGCTTATCCTGACGTGCTAG` gave a log fluorescence of -0.12 z-score.
For `GACGGACTGGGTATCGGAACGTGCTAG`, the log fluorescence was 0.675 z-score.
`GACGGTCTCCGTCTCGGGACGTGCTAG` has a log fluorescence of -0.391 z-score.
`GACGATATCGACTATCGGGACGTGCTA` has a log fluorescence of 3.32 z-score.
The log fluorescence of `TTAGGTCTCAGTCTCGGTTAGTGCTAG` is reported as 0.717 z-score.
`TTGGGACTGGACTATCGGTTAGTGCTA` gave a log fluorescence of 5.47 z-score.
`TTCACTTTCTTTACTTCACTGTGCTAG` gave a log fluorescence of 3.66 z-score.
`TCAGGACTGGGACTGGGTTAGTGCTAG` has a log fluorescence of -0.462 z-score.
With `GACGGTATGGGGTATCGGGACGTGCTA` the log fluorescence was 0.329 z-score.
With `TCAAGACTTGATTTTGGACTGTGCTAG` the log fluorescence was -0.0613 z-score.
The log fluorescence of `CTCTGGGGGGTGGGATGAAGGTGCTAG` is reported as 2.83 z-score.
`TCAATTATATATTTATGACTGTGCTAG` has a log fluorescence of 0.399 z-score.
For `GACGGACTGGGTATCGGGGCGTGCTAG`, the log fluorescence was -0.114 z-score.
With `TCAGCTCTGATGTTGGGACTGTGCTAG` the log fluorescence was -0.484 z-score.
With `AAAATGATTTTTTTCATATAGTGCTAG` the log fluorescence was 1.23 z-score.
`TTACGTCTCCTTCTCCTTTAGTGCTAG` has a log fluorescence of 0.637 z-score.

Set 4
Target: Centromere-binding protein 1, full length, His-tagged (CBF1, Saccharomyces cerevisiae, UniProt P17106, residues 1-351)
Sequence of UniProt P17106 (whole entry, looked up): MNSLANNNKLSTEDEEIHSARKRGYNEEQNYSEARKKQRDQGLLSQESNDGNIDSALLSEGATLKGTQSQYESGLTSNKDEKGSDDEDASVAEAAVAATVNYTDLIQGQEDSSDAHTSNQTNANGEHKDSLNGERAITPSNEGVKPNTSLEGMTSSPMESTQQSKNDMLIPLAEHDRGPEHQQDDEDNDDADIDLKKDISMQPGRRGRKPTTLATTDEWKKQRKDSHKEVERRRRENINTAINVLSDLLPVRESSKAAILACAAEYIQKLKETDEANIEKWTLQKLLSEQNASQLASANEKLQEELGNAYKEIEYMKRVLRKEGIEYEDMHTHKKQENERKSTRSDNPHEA
Method: competition protein-binding microarray
Molecule type: double-stranded DNA, one strand shown
Sample: in vitro
Tested at: 2 µM
Notes: whole 60-bp probe, lowest competitor level
With: Pho4 competitor, 0.05 µM
Direction: higher = stronger binding
Shared flanks, not repeated: … GTCTTGATTCGCTTGACGCTGCTG
For `TGCGCAACAACTTGATGTGTGGGTGTATGTCTAGAA`, the fluorescence intensity was 77.8 a.u.
`GTAGCAGATTCCTGGAACGTGCTTTCTCTCGAGGTA` gave a fluorescence intensity of 112 a.u.
`AATAATATATCTCACCACGTGGGACATTGGGCACTT` gave a fluorescence intensity of 1300 a.u.
`CTTCTGTAAATTTTTCACGTGTGATGACGCGCCCCG` gave a fluorescence intensity of 585 a.u.
For `TCTTCTTTTTGCCTCCACGGGCCGCAGATCTGTGTT`, the fluorescence intensity was 66 a.u.
`GGTAACGAGATGGATCTCGTGAAGGATGATATCAAT` has a fluorescence intensity of 153 a.u.
`AATTGGAGAACACATTTCGTGGGTATTTCGACCCAA` gave a fluorescence intensity of 67 a.u.
The fluorescence intensity of `GTTATGGAGATAACACACGTGCCGAGAGGAAAATAG` is reported as 1490 a.u.
With `ATATATATTTCATTGAATGGATATATGAAACGTTTA` the fluorescence intensity was 126 a.u.
With `TGCGCAACAACTTGAAAGGTGGGTGTATGTCTAGAA` the fluorescence intensity was 59.5 a.u.
For `CGTCCTAGTGATTGCGAAGTGGGTGCCATGAGGAAG`, the fluorescence intensity was 81 a.u.
With `CATACCCAACCTTGTCACCTGACTTAAGATATTTGT` the fluorescence intensity was 2080 a.u.
For `ACTACAGACAAAAAACCCGTGGCCGACCGAACCGAA`, the fluorescence intensity was 73.6 a.u.
The fluorescence intensity of `TACGGCCCAACTCCGCACGCTGCCAAGGAGAGCATT` is reported as 60.6 a.u.
The fluorescence intensity of `CTTCCAAATGATGTTTTCGTGCGATAACTTAAGTAT` is reported as 85.4 a.u.
`TGTTGCATACGTAAACATGTGTAGATTATTCTAAAT` has a fluorescence intensity of 130 a.u.
`TATCACCCTTTAGGAGCCGTGATGGAGAAGACTACC` has a fluorescence intensity of 76.3 a.u.
`ATGAGATACTTGAAACACGTTTCAAGAAGATTCAAG` gave a fluorescence intensity of 107 a.u.
With `AAATTACTAAGTTGTCACCCGACTTACCCCGTATGA` the fluorescence intensity was 72 a.u.

Set 5
Target: Sal-like protein 4, full length isoform A (SALL4, Homo sapiens, UniProt Q9UJQ4, residues 1-1053)
Sequence of UniProt Q9UJQ4 (whole entry, looked up): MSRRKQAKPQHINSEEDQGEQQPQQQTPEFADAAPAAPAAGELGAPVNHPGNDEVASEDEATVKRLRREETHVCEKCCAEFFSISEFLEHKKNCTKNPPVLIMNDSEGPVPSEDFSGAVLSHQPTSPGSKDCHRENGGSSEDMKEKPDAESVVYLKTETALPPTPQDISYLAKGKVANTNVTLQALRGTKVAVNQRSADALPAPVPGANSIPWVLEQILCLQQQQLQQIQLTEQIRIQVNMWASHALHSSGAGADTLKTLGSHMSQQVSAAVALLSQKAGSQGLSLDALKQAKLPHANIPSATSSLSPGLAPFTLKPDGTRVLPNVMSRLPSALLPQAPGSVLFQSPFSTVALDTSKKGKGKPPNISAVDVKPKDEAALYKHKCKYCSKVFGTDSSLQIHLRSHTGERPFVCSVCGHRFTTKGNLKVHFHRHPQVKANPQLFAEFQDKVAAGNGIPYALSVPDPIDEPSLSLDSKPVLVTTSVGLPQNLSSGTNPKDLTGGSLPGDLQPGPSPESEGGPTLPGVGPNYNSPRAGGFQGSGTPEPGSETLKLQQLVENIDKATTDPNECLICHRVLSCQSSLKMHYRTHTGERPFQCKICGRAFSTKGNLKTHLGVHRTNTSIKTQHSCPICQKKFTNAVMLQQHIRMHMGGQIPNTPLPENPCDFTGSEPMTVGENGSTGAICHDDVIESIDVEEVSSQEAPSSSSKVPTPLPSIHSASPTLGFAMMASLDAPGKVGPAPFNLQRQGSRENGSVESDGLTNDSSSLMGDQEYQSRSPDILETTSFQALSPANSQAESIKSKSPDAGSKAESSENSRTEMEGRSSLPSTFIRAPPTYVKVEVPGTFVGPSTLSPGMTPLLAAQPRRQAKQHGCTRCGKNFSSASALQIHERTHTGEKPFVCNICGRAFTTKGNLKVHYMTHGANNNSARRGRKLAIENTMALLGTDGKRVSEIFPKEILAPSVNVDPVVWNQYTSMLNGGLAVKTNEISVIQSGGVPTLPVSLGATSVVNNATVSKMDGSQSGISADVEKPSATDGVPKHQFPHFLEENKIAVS
Method: universal PBM
Molecule type: double-stranded DNA, one strand shown
Sample: in vitro
Tested at: 600 nM
Notes: 8-mer, flanks averaged, mean of replicates
Direction: higher = stronger binding
`TCCAACCA` has an E-score of -0.0174.
With `AGAAAGGC` the E-score was -0.0461.
`GTGCCAAC` gave an E-score of -0.172.
With `TACTTGCA` the E-score was 0.158.
With `ACTCTCGG` the E-score was -0.2.
`AGGACAAA` gave an E-score of 0.163.
`TAATTGGA` gave an E-score of 0.176.
`ATCGAAAT` gave an E-score of 0.169.
For `ACAACAAG`, the E-score was 0.132.
`CAAAGTGG` gave an E-score of -0.174.
For `CGCGAGCC`, the E-score was -0.331.
`ACAGTTCT` has an E-score of 0.0755.
For `AAGCGAAA`, the E-score was 0.121.
`GCAAACCC` gave an E-score of -0.272.
`GAAATGGC` gave an E-score of -0.0764.
The E-score of `AAGAGCAC` is reported as -0.0591.
With `AGCTTCCA` the E-score was -0.1.

A few entries again (set 4):
`CTTCTGTAAATTTTTCACGTGTGATGACGCGCCCCG` gave a fluorescence intensity of 585 a.u.
For `TCTTCTTTTTGCCTCCACGGGCCGCAGATCTGTGTT`, the fluorescence intensity was 66 a.u.
`GGTAACGAGATGGATCTCGTGAAGGATGATATCAAT` has a fluorescence intensity of 153 a.u.
`AATTGGAGAACACATTTCGTGGGTATTTCGACCCAA` gave a fluorescence intensity of 67 a.u.
The fluorescence intensity of `GTTATGGAGATAACACACGTGCCGAGAGGAAAATAG` is reported as 1490 a.u.
With `ATATATATTTCATTGAATGGATATATGAAACGTTTA` the fluorescence intensity was 126 a.u.
With `TGCGCAACAACTTGAAAGGTGGGTGTATGTCTAGAA` the fluorescence intensity was 59.5 a.u.
For `CGTCCTAGTGATTGCGAAGTGGGTGCCATGAGGAAG`, the fluorescence intensity was 81 a.u.
With `CATACCCAACCTTGTCACCTGACTTAAGATATTTGT` the fluorescence intensity was 2080 a.u.
For `ACTACAGACAAAAAACCCGTGGCCGACCGAACCGAA`, the fluorescence intensity was 73.6 a.u.
